Measurements from different studies.
Protocols differ between the studies behind these lines. ± marks the error that the study gave.
Organism: influenza A virus

With OC12CC3CC(C1)CC(NCc1cnc(N4CCCCC4)nc1)(C3)C2 the EC50 was 4.5 ± 1.9 µM (plaque reduction; MDCK ST6Gal I, A/WSN/33 (H1N1); 2 days).
COc1cc(-c2oc3cc(O)cc(O)c3c(=O)c2O[C@@H]2O[C@H](CO)[C@@H](O)[C@H](OC(C)=O)[C@H]2O)ccc1O has an IC50 of 157 ± 2.1 µM (hemagglutination; A/Vladivostok/2/09 (H1N1)).
For Cc1cc(-c2ccccc2)n2nc(C(=O)Nc3sc4c(c3C(N)=O)CCCCC4)nc2n1, the EC50 was 21 ± 4 µM (plaque formation, plaque reduction; MDCK, A/PR/8/34).
For CCCCCCCCCC(=O)OCC1OC(n2cc(C)c(=O)[nH]c2=O)CC1N(C)C (stereo not drawn), the EC50 was > 0.23 µM (viral cytopathic effect; MDCK, H3N2).
For c1nc(N2CCCCCC2)ncc1CNC12CC3CC(CC(C3)C1)C2, the EC50 was 0.7 ± 0.1 µM (cytopathic effect; MDCK, A/WSN/33 H1N1; 48 h).
CCOC(=O)c1cnn2c1NN=C([N+](=O)[O-])C2(C)O (stereo not drawn) has a selectivity index of 2 (MDCK, A/Puerto Rico/8/34 (H1N1); reference: CC50 over IC50).
The IC50 of COc1cc(-c2oc3cc(O)cc(O)c3c(=O)c2O[C@@H]2O[C@H](CO)[C@@H](O)[C@H](O)[C@H]2OC(=O)c2cc(O)c(O)c(O)c2)ccc1O is reported as 176 to 191 µM (hemagglutination; virus panel; range over panel).
For CCC1(O)C([N+](=O)[O-])=NNc2nc(SC)nn21 (stereo not drawn), the selectivity index was 13 (MDCK, A/Puerto Rico/8/34 (H1N1); reference: CC50 over IC50).
Cc1cn(C2CC(N(C)C)C(CO)O2)c(=O)[nH]c1=O (stereo not drawn) has an EC50 of > 0.37 µM (viral cytopathic effect; MDCK, H3N2).
For COc1cc(-c2oc3cc(O[C@@H]4O[C@@H](C)[C@H](O)[C@@H](O)[C@H]4O)cc(O)c3c(=O)c2O[C@@H]2O[C@H](CO[C@@H]3O[C@@H](C)[C@H](O)[C@@H](O)[C@H]3O)[C@@H](O)[C@H](OC(C)=O)[C@H]2O)ccc1O, the IC50 was 152 ± 3 µM (hemagglutination; A/Vladivostok/2/09 (H1N1)).
The selectivity index of CCC1(O)C([N+](=O)[O-])=NNc2nc(C(F)(F)F)nn21 (stereo not drawn) is reported as 1 (MDCK, A/Puerto Rico/8/34 (H1N1); reference: CC50 over IC50).
The EC50 of Cc1cc(-c2ccccc2)nc2nc(C(=O)Nc3sc4c(c3C(N)=O)CCCCC4)nn12 is reported as 8 ± 2 µM (plaque formation, plaque reduction; MDCK, A/PR/8/34).
O=C1/C(=N\NC(=S)NN=Cc2cccs2)c2ccccc2N1Cc1ccccc1 gave an EC50 of > 4 µM (cytopathic effect, MTS; MDCK, H1N1).
For CCC1(O)C([N+](=O)[O-])=NNc2ncnn21 (stereo not drawn), the selectivity index was 2 (MDCK, A/Puerto Rico/8/34 (H1N1); reference: CC50 over IC50).
With c1nc(N2CCCCC2)ncc1CNC12CC3CC(CC(C3)C1)C2 the EC50 was 1.7 ± 0.5 µM (plaque reduction; MDCK ST6Gal I, A/WSN/33 (H1N1); 2 days).
